Experimental data from different studies.
Parts stem from different laboratories: compare values within a part only.
Sequence of UniProt O00141 (whole entry, looked up): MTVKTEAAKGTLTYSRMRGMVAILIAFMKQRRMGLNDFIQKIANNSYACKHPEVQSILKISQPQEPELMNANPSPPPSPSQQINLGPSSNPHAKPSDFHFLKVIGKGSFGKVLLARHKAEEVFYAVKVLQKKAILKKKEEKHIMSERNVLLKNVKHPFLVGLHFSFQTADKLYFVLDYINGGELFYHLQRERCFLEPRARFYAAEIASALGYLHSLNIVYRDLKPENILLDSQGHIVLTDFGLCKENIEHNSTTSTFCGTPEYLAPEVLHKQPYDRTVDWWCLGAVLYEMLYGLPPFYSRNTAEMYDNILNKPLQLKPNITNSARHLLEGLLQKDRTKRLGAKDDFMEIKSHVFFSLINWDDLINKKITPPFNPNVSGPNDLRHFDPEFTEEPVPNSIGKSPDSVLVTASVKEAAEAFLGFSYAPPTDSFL
Sequence of UniProt Q04759 (whole entry, looked up): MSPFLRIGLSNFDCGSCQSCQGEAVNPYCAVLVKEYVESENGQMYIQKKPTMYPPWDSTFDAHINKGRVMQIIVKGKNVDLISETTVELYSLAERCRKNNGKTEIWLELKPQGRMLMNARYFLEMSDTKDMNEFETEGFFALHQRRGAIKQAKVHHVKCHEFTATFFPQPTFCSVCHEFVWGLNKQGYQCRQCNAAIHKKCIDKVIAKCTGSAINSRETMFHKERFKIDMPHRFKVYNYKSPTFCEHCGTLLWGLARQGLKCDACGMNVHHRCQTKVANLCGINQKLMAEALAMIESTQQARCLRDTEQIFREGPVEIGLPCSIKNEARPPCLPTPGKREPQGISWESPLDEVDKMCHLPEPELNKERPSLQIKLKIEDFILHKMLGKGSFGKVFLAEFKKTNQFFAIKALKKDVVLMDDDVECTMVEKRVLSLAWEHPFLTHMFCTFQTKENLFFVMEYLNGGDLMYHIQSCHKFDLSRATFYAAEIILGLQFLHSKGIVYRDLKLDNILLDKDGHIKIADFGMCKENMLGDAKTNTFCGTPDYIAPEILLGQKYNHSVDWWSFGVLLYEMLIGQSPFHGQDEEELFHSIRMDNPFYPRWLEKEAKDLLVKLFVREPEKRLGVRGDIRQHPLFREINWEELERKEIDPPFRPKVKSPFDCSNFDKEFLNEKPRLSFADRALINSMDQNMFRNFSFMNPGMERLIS
Sequence of UniProt Q96SB4 (whole entry, looked up): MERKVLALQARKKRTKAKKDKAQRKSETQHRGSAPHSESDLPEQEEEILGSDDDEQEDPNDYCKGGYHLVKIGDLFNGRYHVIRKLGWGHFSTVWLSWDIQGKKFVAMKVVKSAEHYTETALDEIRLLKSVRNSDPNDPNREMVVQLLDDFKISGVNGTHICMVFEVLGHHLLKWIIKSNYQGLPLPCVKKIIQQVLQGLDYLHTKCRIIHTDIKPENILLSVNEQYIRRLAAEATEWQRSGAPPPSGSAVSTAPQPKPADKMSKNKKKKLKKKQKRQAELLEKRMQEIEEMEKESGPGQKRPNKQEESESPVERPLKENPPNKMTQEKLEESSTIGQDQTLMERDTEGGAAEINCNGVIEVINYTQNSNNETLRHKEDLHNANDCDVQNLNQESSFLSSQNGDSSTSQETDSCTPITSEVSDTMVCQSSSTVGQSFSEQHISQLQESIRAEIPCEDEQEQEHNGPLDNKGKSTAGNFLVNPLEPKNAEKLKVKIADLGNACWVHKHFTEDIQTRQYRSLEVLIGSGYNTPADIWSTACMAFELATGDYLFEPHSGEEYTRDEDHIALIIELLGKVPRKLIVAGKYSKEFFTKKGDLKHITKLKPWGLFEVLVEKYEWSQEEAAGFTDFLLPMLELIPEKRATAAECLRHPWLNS
Sequence of UniProt Q13705 (whole entry, looked up): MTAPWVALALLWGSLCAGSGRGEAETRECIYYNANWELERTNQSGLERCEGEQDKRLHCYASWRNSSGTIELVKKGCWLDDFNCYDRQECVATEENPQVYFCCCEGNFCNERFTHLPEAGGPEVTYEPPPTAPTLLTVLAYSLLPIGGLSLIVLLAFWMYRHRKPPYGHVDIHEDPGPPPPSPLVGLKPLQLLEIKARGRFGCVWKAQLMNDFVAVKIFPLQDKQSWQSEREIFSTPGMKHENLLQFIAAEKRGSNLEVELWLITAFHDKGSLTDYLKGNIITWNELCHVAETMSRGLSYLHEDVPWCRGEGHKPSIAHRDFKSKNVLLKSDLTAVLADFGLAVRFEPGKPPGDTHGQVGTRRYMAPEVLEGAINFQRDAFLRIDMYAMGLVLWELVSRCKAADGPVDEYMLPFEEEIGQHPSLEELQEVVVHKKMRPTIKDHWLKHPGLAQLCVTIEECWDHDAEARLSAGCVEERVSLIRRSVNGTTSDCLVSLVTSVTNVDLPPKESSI
Sequence of UniProt Q13882 (whole entry, looked up): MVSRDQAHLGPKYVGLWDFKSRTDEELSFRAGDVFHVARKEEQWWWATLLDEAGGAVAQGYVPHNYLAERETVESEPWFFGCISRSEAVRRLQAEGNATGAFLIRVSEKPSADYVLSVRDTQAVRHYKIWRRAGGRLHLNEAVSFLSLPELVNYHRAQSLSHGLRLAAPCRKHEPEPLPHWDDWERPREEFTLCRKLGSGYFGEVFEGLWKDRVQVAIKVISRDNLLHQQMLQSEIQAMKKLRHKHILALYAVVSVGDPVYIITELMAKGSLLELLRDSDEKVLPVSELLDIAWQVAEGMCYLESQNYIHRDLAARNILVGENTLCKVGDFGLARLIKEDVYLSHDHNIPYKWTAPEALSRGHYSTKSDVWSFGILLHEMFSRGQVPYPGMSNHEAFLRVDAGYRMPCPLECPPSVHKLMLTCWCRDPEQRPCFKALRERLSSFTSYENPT
Sequence of UniProt Q13153 (whole entry, looked up): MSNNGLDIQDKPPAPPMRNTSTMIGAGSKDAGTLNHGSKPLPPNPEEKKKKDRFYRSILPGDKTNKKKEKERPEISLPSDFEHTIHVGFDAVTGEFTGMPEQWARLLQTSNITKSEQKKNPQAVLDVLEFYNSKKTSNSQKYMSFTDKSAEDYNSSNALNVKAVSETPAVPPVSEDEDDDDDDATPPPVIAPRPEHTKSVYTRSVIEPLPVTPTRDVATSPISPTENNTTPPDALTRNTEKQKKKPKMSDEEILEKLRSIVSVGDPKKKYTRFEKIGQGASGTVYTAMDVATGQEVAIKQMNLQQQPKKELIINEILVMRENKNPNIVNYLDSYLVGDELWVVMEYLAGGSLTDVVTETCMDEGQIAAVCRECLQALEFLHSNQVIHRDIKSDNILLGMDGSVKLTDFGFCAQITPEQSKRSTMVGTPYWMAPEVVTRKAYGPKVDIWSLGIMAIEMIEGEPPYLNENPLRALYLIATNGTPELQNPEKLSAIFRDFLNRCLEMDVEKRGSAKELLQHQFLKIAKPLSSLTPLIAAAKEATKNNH
Sequence of UniProt P42679 (whole entry, looked up): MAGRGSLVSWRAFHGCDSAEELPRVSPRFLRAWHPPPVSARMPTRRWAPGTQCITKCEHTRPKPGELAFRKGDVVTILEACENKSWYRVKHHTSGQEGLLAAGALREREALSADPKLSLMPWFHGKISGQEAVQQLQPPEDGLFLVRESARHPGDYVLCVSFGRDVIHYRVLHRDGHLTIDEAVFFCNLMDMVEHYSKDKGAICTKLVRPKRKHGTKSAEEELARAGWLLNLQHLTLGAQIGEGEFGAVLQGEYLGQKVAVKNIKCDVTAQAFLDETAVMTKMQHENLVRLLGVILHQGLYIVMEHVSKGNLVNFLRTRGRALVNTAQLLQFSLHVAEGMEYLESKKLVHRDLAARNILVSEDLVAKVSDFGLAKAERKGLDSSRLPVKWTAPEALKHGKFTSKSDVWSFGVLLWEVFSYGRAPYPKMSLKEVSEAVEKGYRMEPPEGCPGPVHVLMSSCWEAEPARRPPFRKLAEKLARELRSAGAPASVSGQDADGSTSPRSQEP
Sequence of UniProt Q16659 (whole entry, looked up): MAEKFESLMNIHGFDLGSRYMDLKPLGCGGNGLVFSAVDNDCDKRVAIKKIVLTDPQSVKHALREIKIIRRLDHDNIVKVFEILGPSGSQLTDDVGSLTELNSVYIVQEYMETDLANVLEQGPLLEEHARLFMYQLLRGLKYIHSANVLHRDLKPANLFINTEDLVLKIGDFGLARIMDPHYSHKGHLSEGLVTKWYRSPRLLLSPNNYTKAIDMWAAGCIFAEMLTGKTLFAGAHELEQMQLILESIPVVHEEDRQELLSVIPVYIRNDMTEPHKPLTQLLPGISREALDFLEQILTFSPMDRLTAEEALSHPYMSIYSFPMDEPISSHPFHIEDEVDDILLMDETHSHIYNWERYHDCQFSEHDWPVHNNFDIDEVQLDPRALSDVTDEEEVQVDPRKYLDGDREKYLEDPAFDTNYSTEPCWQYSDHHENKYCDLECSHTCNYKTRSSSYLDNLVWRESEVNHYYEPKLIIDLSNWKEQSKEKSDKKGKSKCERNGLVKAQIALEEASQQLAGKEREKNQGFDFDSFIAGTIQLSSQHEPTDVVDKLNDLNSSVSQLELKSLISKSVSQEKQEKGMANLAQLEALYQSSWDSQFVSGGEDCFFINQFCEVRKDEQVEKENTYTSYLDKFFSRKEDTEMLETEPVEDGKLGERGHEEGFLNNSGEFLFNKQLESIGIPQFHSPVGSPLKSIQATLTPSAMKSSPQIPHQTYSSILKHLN
Sequence of UniProt Q00535 (whole entry, looked up): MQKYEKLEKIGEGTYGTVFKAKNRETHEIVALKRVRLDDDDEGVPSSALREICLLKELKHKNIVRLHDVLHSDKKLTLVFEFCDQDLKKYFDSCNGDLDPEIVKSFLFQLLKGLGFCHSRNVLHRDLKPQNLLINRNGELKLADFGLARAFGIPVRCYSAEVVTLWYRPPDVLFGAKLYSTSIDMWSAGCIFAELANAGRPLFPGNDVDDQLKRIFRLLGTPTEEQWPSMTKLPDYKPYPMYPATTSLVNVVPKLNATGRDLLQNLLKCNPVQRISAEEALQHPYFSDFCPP

Sample 1 — Compound: CC(=O)c1ccc(N2CCOCC2)cc1O; observed: enzyme activity; mode: inhibitor; tested at: 0.5 µM; reference: control
The remaining activity was 124% (Calcium/calmodulin-dependent protein kinase kinase 1 (CAMKK1, Homo sapiens, UniProt Q8N5S9)).
For Serine/threonine-protein kinase PAK 6 (PAK6, Homo sapiens, UniProt Q9NQU5): remaining activity read 93.7%.
For Ephrin type-A receptor 2 (EPHA2, Homo sapiens, UniProt P29317): remaining activity read 107%.
It gave 101% for remaining activity (Ribosomal protein S6 kinase alpha-3 (RPS6KA3, Homo sapiens, UniProt P51812)).
Casein kinase I isoform epsilon (CSNK1E, Homo sapiens, UniProt P49674) — remaining activity: 96.2%.
The remaining activity was 93.9% (Muscle, skeletal receptor tyrosine-protein kinase (MUSK, Homo sapiens, UniProt O15146)).
It gave 87% for remaining activity (Serine/threonine-protein kinase SIK2 (SIK2, Homo sapiens, UniProt Q9H0K1)).
SRSF protein kinase 1 (SRPK1, Homo sapiens, UniProt Q96SB4) — remaining activity: 90.7%.
For Insulin-like growth factor 1 receptor (IGF1R, Homo sapiens, UniProt P08069): remaining activity read 106%.
It gave 97.8% for remaining activity (Mitogen-activated protein kinase kinase kinase 20 (MAP3K20, Homo sapiens, UniProt Q9NYL2)).
The remaining activity was 104% (Tyrosine-protein kinase JAK1 (JAK1, Homo sapiens, UniProt P23458)).
Dual specificity protein kinase CLK2 (CLK2, Homo sapiens, UniProt P49760) — remaining activity: 102%.
It gave 93.7% for remaining activity (Serine/threonine-protein kinase PAK 1 (PAK1, Homo sapiens, UniProt Q13153)).
Tyrosine-protein kinase Tec (TEC, Homo sapiens, UniProt P42680) — remaining activity: 139%.
Protein kinase C theta type (PRKCQ, Homo sapiens, UniProt Q04759) — remaining activity: 99.5%.
It gave 101% for remaining activity (Serine/threonine-protein kinase Sgk2 (SGK2, Homo sapiens, UniProt Q9HBY8)).
Cyclin-dependent kinase 2, with cyclin E (CDK2, Homo sapiens, UniProt P24941) — remaining activity: 94.8%.
The remaining activity was 97.1% (Vascular endothelial growth factor receptor 1 (FLT1, Homo sapiens, UniProt P17948)).
It gave 89.1% for remaining activity (Tyrosine-protein kinase receptor TYRO3 (TYRO3, Homo sapiens, UniProt Q06418)).
It gave 111% for remaining activity (Protein kinase C zeta type (PRKCZ, Homo sapiens, UniProt Q05513)).
The remaining activity was 102% (Calcium/calmodulin-dependent protein kinase type 1 (CAMK1, Homo sapiens, UniProt Q14012)).
It gave 100% for remaining activity (Casein kinase I isoform delta (CSNK1D, Homo sapiens, UniProt P48730)).

Sample 2 — cell line: HaCaT; tested at: 100 µM; time: 60 h
With `c1ccc2c(CC3=NCCN3)cccc2c1` the viability was 111%.
For `CC(C)(C)c1cc(C(C)(C)C)c(NC(=O)c2c[nH]c3ccccc3c2=O)cc1O`, the viability was 17.4%.
With `O=C(COc1ccc(Cl)cc1)N1CCN(Cc2ccc3c(c2)OCO3)CC1` the viability was 79.6%.
With `C[N+]1(C)[C@@H]2C[C@@H](OC(=O)C(O)(c3cccs3)c3cccs3)C[C@H]1[C@@H]1O[C@@H]12` the viability was 144%.
`CC(=O)[C@@]1(O)CC[C@H]2[C@@H]3C[C@H](C)C4=CC(=O)C=C[C@]4(C)[C@@]3(F)[C@@H](O)C[C@@]21C` gave a viability of 137%.
The viability of `CC(=O)OCC(=O)[C@@]12OC3(CCCC3)O[C@@H]1C[C@H]1[C@@H]3CCC4=CC(=O)C=C[C@]4(C)[C@@]3(F)[C@@H](O)C[C@@]12C` is reported as 45.2%.

Sample 3 — host: human; medium: microsomes or S9; tested at: 2 µM; time: 0.5 h
`CN(C(=O)CN1CCC(NC(=O)C2CCCCC2)CC1)C1CCCCC1` gave a remaining compound of 5.21%.
For `CCOP(=O)(Cc1ccc(-c2ccccc2OC)cn1)OCC`, the remaining compound was 72%.
`c1ccc(C(c2ccccc2)([C@H]2CCCN2)n2cc(-c3ccccn3)nn2)cc1` has a remaining compound of 18.9%.
`O=C(Cc1ccc(Cl)s1)NC(CO)c1c(F)cccc1F` (centres unmarked) gave a remaining compound of 35.7%.
With `Cc1nc2c(cc1-c1ccccc1)[nH]c(=O)n2Cc1ccc(-c2cc(CC(C)C)sc2S(=O)(=O)NC(C)(C)C)cc1` the remaining compound was 9.17%.
With `COc1cc(C(=O)N2CCCCCC2)c(N(C)S(C)(=O)=O)cc1OC` the remaining compound was 69.9%.
`O=c1[nH]ncn2nc(-c3ccc(Cl)c(Cl)c3)cc12` has a remaining compound of over 99.9%.
`CC(C)CCC(C(N)=O)C1=NC(C)(C)Cc2ccccc21` (centres unmarked) has a remaining compound of 1.92%.
For `Cc1cn2c(CNc3ncnc4c3cnn4C)c(C)nc2s1`, the remaining compound was over 100%.

Sample 4 — observed: cell-free assay; technique: competition with immobilised ligand; tested at: 1 µM
SMILES: Nc1cnc(N2CCc3cc(S(=O)(=O)Nc4c(F)cc(Cl)cc4F)cc(N4CCCC4=O)c32)nc1
The remaining binding was 100% (Macrophage colony-stimulating factor 1 receptor (CSF1R, Homo sapiens, UniProt P07333)).
For Mitogen-activated protein kinase kinase kinase 7 (MAP3K7, Homo sapiens, UniProt O43318): remaining binding read 100%.
For Proto-oncogene tyrosine-protein kinase receptor Ret (RET, Homo sapiens, UniProt P07949, V804M): remaining binding read 100%.
For Death-associated protein kinase 1 (DAPK1, Homo sapiens, UniProt P53355): remaining binding read 100%.
Protein-tyrosine kinase 6 (PTK6, Homo sapiens, UniProt Q13882) — remaining binding: 100%.
The remaining binding was 100% (Ephrin type-B receptor 6 (EPHB6, Homo sapiens, UniProt O15197)).
It gave 100% for remaining binding (Serine/threonine-protein kinase LATS1 (LATS1, Homo sapiens, UniProt O95835)).
It gave 100% for remaining binding (Mitotic checkpoint serine/threonine-protein kinase BUB1 (BUB1, Homo sapiens, UniProt O43683)).
For Mitogen-activated protein kinase kinase kinase 5 (MAP3K5, Homo sapiens, UniProt Q99683): remaining binding read 83%.
It gave 78% for remaining binding (Angiopoietin-1 receptor (TEK, Homo sapiens, UniProt Q02763)).
For Mitogen-activated protein kinase 4 (MAPK4, Homo sapiens, UniProt P31152): remaining binding read 100%.
Death-associated protein kinase 2 (DAPK2, Homo sapiens, UniProt Q9UIK4) — remaining binding: 91%.
For Receptor-type tyrosine-protein kinase FLT3 (FLT3, Homo sapiens, UniProt P36888, N841I): remaining binding read 89%.
For Megakaryocyte-associated tyrosine-protein kinase (MATK, Homo sapiens, UniProt P42679): remaining binding read 100%.
Phosphatidylinositol 4,5-bisphosphate 3-kinase catalytic subunit alpha isoform (PIK3CA, Homo sapiens, UniProt P42336, E545K) — remaining binding: 100%.
It gave 100% for remaining binding (cAMP-dependent protein kinase catalytic subunit beta (PRKACB, Homo sapiens, UniProt P22694)).
For Phosphatidylinositol 4-phosphate 5-kinase type-1 alpha (PIP5K1A, Homo sapiens, UniProt Q99755): remaining binding read 100%.
The remaining binding was 100% (Cyclin-dependent kinase 7 (CDK7, Homo sapiens, UniProt P50613)).
The remaining binding was 100% (Mitogen-activated protein kinase 6 (MAPK6, Homo sapiens, UniProt Q16659)).
It gave 77% for remaining binding (Receptor-type tyrosine-protein kinase FLT3 (FLT3, Homo sapiens, UniProt P36888, R834Q)).
For Serine/threonine-protein kinase Sgk1 (SGK1, Homo sapiens, UniProt O00141): remaining binding read 100%.
Mitogen-activated protein kinase kinase kinase kinase 1 (MAP4K1, Homo sapiens, UniProt Q92918) — remaining binding: 83%.
For Leucine-rich repeat serine/threonine-protein kinase 2 (LRRK2, Homo sapiens, UniProt Q5S007, G2019S): remaining binding read 81%.
It gave 100% for remaining binding (Cyclin-dependent kinase 5 (CDK5, Homo sapiens, UniProt Q00535)).
Activin receptor type-2B (ACVR2B, Homo sapiens, UniProt Q13705) — remaining binding: 80%.

For quick reference, copied from above (sample 1):
It gave 101% for remaining activity (Ribosomal protein S6 kinase alpha-3 (RPS6KA3, Homo sapiens, UniProt P51812)).
For Insulin-like growth factor 1 receptor (IGF1R, Homo sapiens, UniProt P08069): remaining activity read 106%.
The remaining activity was 102% (Calcium/calmodulin-dependent protein kinase type 1 (CAMK1, Homo sapiens, UniProt Q14012)).
It gave 87% for remaining activity (Serine/threonine-protein kinase SIK2 (SIK2, Homo sapiens, UniProt Q9H0K1)).
Dual specificity protein kinase CLK2 (CLK2, Homo sapiens, UniProt P49760) — remaining activity: 102%.
The remaining activity was 104% (Tyrosine-protein kinase JAK1 (JAK1, Homo sapiens, UniProt P23458)).
